Experimental data of several laboratories.
± gives the spread as reported.
BCHE: Cholinesterase (BCHE, Homo sapiens, UniProt P06276)
Sequence of UniProt P06276 (whole entry, looked up): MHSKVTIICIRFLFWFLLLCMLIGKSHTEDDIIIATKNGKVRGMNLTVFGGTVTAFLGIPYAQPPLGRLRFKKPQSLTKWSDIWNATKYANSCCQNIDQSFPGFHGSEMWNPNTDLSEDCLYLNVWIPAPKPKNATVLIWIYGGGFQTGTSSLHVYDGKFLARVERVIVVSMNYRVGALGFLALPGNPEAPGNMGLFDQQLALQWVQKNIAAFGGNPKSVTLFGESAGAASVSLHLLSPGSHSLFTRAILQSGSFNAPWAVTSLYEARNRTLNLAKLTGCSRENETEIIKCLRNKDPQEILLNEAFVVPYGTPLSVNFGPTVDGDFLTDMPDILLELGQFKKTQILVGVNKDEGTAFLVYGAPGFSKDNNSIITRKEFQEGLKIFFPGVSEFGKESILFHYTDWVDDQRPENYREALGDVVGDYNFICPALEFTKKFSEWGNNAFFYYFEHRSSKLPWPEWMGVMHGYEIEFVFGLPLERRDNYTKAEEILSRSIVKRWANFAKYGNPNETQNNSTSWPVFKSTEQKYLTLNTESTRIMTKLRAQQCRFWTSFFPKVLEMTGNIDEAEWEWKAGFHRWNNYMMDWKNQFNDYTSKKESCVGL

c1ccc2c(c1)c1cccc3ccc4cccc2c4c31  log K(PDMS-water) (fresh water; 12 (unit not given), 20 °C, SSP sampler, 100 µm): 5.09 ± 0.02
CC1(COc2ccc3c(c2)ncn3-c2ccc3cccc(N4CCC(N)CC4)c3n2)COC1  lymphocyte count decrease grade (human, recurrent HGG or DIPG; oral, 100 mg/m2): 0
Clc1ccc(-c2cc(Cl)c(Cl)c(Cl)c2Cl)cc1Cl  literature range factor (polyethylene-water partitioning; PCB compilation; reference: maximum over minimum K): 9
N[C@@H]1c2ccccc2OC12CCN(c1cnc3c(N4CCCc5ncccc54)n[nH]c3n1)CC2  TEAE causing dose reduction (advanced solid tumour patients; oral, 100 mg once daily): 14.3%
C[C@]1(O)C[C@@](N)(c2ccc(-c3nc4n(c3-c3ccccc3)COc3ccncc3-4)cc2)C1  patients with grade ≥3 TEAE (human, advanced or metastatic solid tumours; 16 mg once daily, phase I dose escalation): 66.7%
O=C1Nc2cc3[nH]nc(-c4ccncc4)c3cc2CN1Cc1ccccc1  patients with grade ≥3 TEAE (item: increased AST; patients with advanced solid tumours; intravenous, dose not given, schedules 1 and 2): 9%
CC(C)[C@@H]1NC(=O)CNC(=O)[C@H](CC(N)=O)NC(=O)[C@H](CCCNC(=N)N)NC(=O)[C@H](Cc2ccc(O)cc2)NC(=O)[C@H](C(C)C)NC(=O)[C@@H](NC(=O)[C@@H](NC(=O)[C@H](CC(N)=O)NC(=O)[C@H](Cc2c[nH]c3ccccc23)NC(=O)[C@H](C)NC(=O)[C@H](Cc2ccccc2)NC(=O)CN)C(C)C)CSSC[C@@H](C(=O)N[C@@H](Cc2c[nH]cn2)C(=O)N[C@@H](CCCNC(=N)N)C(=O)N[C@@H](CCCNC(=N)N)C(=O)N[C@@H](C)C(=O)N[C@@H](CC(N)=O)C(N)=O)NC(=O)[C@H](C(C)C)NC(=O)[C@H](CCCNC(=N)N)NC1=O  secondary structure content (circular dichroism, item: Parallel; PBS; 80 µM, pH 7.4, together with: LPS 1 µM): 3.08%
O=C(O)CCC(CP(=O)(O)O)C(=O)O (centres unmarked)  relative error (rat, plasma; 4 µg/mL, 28 days, -80 °C, long-term stability; reference: nominal concentration): -7.14%
N=C(N)NCCC[C@@H](NC(=O)[C@@H](N)Cc1ccccc1)C(=O)N[C@@H](Cc1ccccc1)C(=O)N[C@@H](CCCCN)C(N)=O  median amount excreted in urine (LC-MS; human; 25 mg, 23.83 h): 402000 ng
C/C=C1/CN2CC[C@]34C(=C(C(=O)OC)[C@H]1C[C@H]23)Nc1ccccc14  CLint (rat liver microsomes, male; 1 µM, pH 7.4): 22.8 ± 0.5 µL/min/mg
N=C(N)NC(=O)Cc1c(Cl)cccc1Cl  IC50 (Plasmodium falciparum; D10): 5.01 µM
C=CC(=O)Nc1cc(Nc2nccc(Nc3cc(Cl)c(F)cc3C(C)(C)O)n2)c(OC)cc1N1CC[C@@H](N(C)C)C1  patients with AST increased (human patients; oral, 100 mg, treatment-emergent adverse events): 11.1%
CC(C)CC(=O)OC[C@H]1O[C@@](C#N)(c2ccc3c(N)ncnn23)[C@H](O)[C@@H]1O  unbound fraction (human plasma; 0.9 to 90 µM, mean over concentrations): 0.192
COc1cccc2c1CCCC2CCCN1CCN(C2CCCCC2)CC1 (centres unmarked)  elimination rate constant (CD-1 mouse, male, plasma; intraperitoneal, 3 mg/kg): 6.85e-05 s⁻¹
CCOc1cc(Oc2ccc(C(F)(F)F)cc2Cl)ccc1[N+](=O)[O-]  final body weight (rat male; 15 mg/kg, 8 days): 144 ± 8.31 g
Cc1ccccc1C(=O)NN=Cc1ccc(O)c(Br)c1  AUC(0-t) (normal C3H/HeN mouse, plasma; intraperitoneal, 0.8 mg/kg): 0.0888 µg·h/mL
O=C(NCCCCN1CCN(c2cccc(Cl)c2Cl)CC1)c1cc2ccccc2s1  IC50 (BCHE; inhibitor): 10.9 ± 3.59 µM
O=S(=O)(Nc1ccccc1)c1ccc(NC(=S)Nc2ccccc2)cc1  relative organ weight (female mice, liver; oral, 20 mg/kg daily 14 days; reference: body weight): 4.83%
C[C@@H](C1=C(CCN(C)C)Cc2ccccc21)c1ccccn1  IC50 (BCHE; inhibitor): 2.1 ± 0.29 µM
COc1ccnc(C(=O)N[C@H]2COC(=O)[C@H](Cc3ccccc3)[C@@H](OC(=O)C(C)C)[C@H](C)OC2=O)c1OCOC(=O)C(C)C  DT50 (aerobic dark soil incubation; clay soil; 20 °C, persistence endpoint): 1.2 days
O=C(O)CCCOc1ccc(F)cc1-c1cc(-c2ccccc2C(F)(F)F)n(-c2ccccc2)n1  blood chemistry (item: T-Bil; Crl:CD(SD) rats, female, blood; iv, 25 µg/kg, 14 days): 0.13 ± 0.01 mg/dL
NCCCC[C@@H]1NC(=O)[C@@H](Cc2c[nH]c3ccccc23)NC(=O)[C@H](c2ccccc2)NC(=O)[C@@H]2C[C@@H](OC(=O)NCCN)CN2C(=O)[C@H](Cc2ccccc2)NC(=O)[C@H](Cc2ccc(OCc3ccccc3)cc2)NC1=O  QTcI change from baseline (healthy volunteers; subcutaneous, 1950 µg twice daily, day 5, 0.00 h): 2.2 ms
Clc1ccc(-c2ccc(Cl)c(Cl)c2)c(Cl)c1  log K(PDMS-water) (fresh water; 20 °C): 5.65 ± 0.04
CN1CCN(c2ccc(Nc3nccc(-c4ccc(F)cc4)n3)cc2C(F)(F)F)CC1  toxicity (Danio rerio embryos; 5 µM, 5 d): 97 ± 3.5%
C[C@@H](NC(=O)N1C(=O)[C@H](Cc2ccnc(N)c2)[C@H]1C(=O)O)C1CCCCC1  incidence of moderate AEs (healthy adult Chinese volunteers; continuous intravenous infusion, 0.6 mg/kg/h, 5-day infusion, CTCAE 5.0 grading): 0%
CCNCCCNC/C=C\CNCCCNCC  ECG changed from normal baseline (human, advanced solid tumours; intravenous, dose not given; reference: patients): 11.1%
COc1cc2c(Oc3ccc4[nH]c(C)cc4c3F)ccnc2cc1OCC1(N)CC1  grade 3 Hyperthyroidism (paediatric recurrent refractory sarcoma; 12 mg): 0%
CCN(CC)CCOCCOC(=O)C1(c2ccccc2)CCCC1  IC50 (Plasmodium falciparum; 7G8): 3.98 µM
C[C@]1(CO)Cc2ncn(-c3ccc(C#N)c(Cl)c3)c2C(=O)O1  TEAE incidence (human; concentration not given, European single ascending dose): 27.1%
CC(C)[C@@H]1NC(=O)[C@@H]2CSSC[C@@H]3NC(=O)[C@H]([C@@H](C)O)NC(=O)[C@@H]4CSSC[C@H](NC(=O)[C@H](C(C)C)NC(=O)[C@@H]5CCCN5C(=O)[C@H](CCCCN)NC(=O)CNC(=O)[C@H](CC(N)=O)NC(=O)[C@H](CCCNC(=N)N)NC(=O)[C@H]([C@@H](C)O)NC(=O)[C@H](CSSC[C@H](NC(=O)[C@H]([C@@H](C)O)NC(=O)CNC(=O)CNC1=O)C(=O)N[C@@H](CC(N)=O)C(=O)N[C@@H]([C@@H](C)O)C(=O)N1CCC[C@H]1C(=O)NCC(=O)N4)NC(=O)[C@H](C(C)C)NC(=O)[C@@H]1CCCN1C(=O)[C@H](Cc1c[nH]c4ccccc14)NC(=O)[C@H](CO)NC3=O)C(=O)NCC(=O)N[C@@H](CCC(=O)O)C(=O)N[C@@H]([C@@H](C)O)C(=O)N2  remaining peptide (HPLC; ammonium bicarbonate 0.1 M; 180 µM, 7 days, pH 9.0, 37 °C, deamidation stability): 68.7 ± 3%
CO[C@H]1C[C@@H]2CC[C@@H](C)[C@@](O)(O2)C(=O)C(=O)N2CCCC[C@H]2C(=O)O[C@H]([C@H](C)C[C@@H]2CC[C@@H](OC(=O)NCCOCCOCCOCCOCCOCCOCCOCCOCCC(=O)N3CCc4cc(Cn5nc(-c6ccc7oc(N)nc7c6)c6c(N)ncnc65)ccc4C3)[C@H](OC)C2)C[C@@H](O)[C@H](C)/C=C(\C)[C@@H](O)[C@@H](OC)C(=O)[C@H](C)C[C@H](C)/C=C/C=C/C=C/1C  incidence of TRAE (advanced solid tumour patients; intravenous, dose not given, any grade, all doses): 86%
Cc1ncnc2c1ccn2[C@@H]1C[C@H](Oc2cc(C(F)F)c(F)c3c2CNCC3)[C@@H](O)[C@H]1O  Nausea incidence (patients; dose not given, any grade; reference: patients): 11%

Repeated from above:
O=C(O)CCCOc1ccc(F)cc1-c1cc(-c2ccccc2C(F)(F)F)n(-c2ccccc2)n1  blood chemistry (item: T-Bil; Crl:CD(SD) rats, female, blood; iv, 25 µg/kg, 14 days): 0.13 ± 0.01 mg/dL
NCCCC[C@@H]1NC(=O)[C@@H](Cc2c[nH]c3ccccc23)NC(=O)[C@H](c2ccccc2)NC(=O)[C@@H]2C[C@@H](OC(=O)NCCN)CN2C(=O)[C@H](Cc2ccccc2)NC(=O)[C@H](Cc2ccc(OCc3ccccc3)cc2)NC1=O  QTcI change from baseline (healthy volunteers; subcutaneous, 1950 µg twice daily, day 5, 0.00 h): 2.2 ms
Clc1ccc(-c2ccc(Cl)c(Cl)c2)c(Cl)c1  log K(PDMS-water) (fresh water; 20 °C): 5.65 ± 0.04
CN1CCN(c2ccc(Nc3nccc(-c4ccc(F)cc4)n3)cc2C(F)(F)F)CC1  toxicity (Danio rerio embryos; 5 µM, 5 d): 97 ± 3.5%
C[C@@H](NC(=O)N1C(=O)[C@H](Cc2ccnc(N)c2)[C@H]1C(=O)O)C1CCCCC1  incidence of moderate AEs (healthy adult Chinese volunteers; continuous intravenous infusion, 0.6 mg/kg/h, 5-day infusion, CTCAE 5.0 grading): 0%
